{"data": "Measured values of several laboratories", "note": "Every numbered part comes from another study and shows a few of its results, in no order."}
{"data": "Set 1", "Molecule": "PhoQ, residues 284 288 289 292 302 303 TTSMTC", "technique": "Sort-seq", "refers to": "YFP reporter", "medium": "E. coli", "notes": "PhoQ-PhoP variant library", "together with": "10 µM Mg2+", "relative to": "high Mg2+ state", "direction": "higher = stronger signaling"}
{"target": "PhoP, residues 12 14 15 18 19 NQCAL (Escherichia coli, UniProt P23836)", "fold induction": 18.4}
{"target": "PhoP, residues 12 14 15 18 19 TQAML (Escherichia coli, UniProt P23836)", "fold induction": 14.1}
{"target": "PhoP, residues 12 14 15 18 19 LHTVL (Escherichia coli, UniProt P23836)", "fold induction": 16.9}
{"data": "Set 2", "target": "RNA binding protein fox-1 homolog 2, RRM domain, GST-SBP tag (RBFOX2, Homo sapiens, UniProt O43251-10, residues 100-194)", "technique": "RNA Bind-n-Seq", "form": "RNA", "medium": "in vitro", "concentration": "365 nM", "notes": "natural RNA segment, single round, ends assumed", "relative to": "no-protein control", "direction": "higher = stronger binding", "Residues (chain)": "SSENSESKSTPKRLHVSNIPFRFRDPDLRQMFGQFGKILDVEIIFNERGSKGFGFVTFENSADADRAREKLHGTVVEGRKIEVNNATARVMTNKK"}
{"Strand": "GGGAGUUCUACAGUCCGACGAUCUUAUUUCUGAGCAAAGCAUCGGUCAUGUGUGUAUUUUUUCAUAGUCCCACCUUGGAGCAUUUAUGUAGACAUUGUAAAUAAAUUUUGUGCAAAAAGGACUGGAAAAAUGAUGGAAUUCUCGGGUGCCAA", "RBNS enrichment (R)": 1.34}
{"Strand": "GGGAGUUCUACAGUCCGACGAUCCCCCCGCUCCAUAGUUUACAAUGCAAAUCUGUCUCAAGAUCUUCACUUCGCUGCUGCUGAGAGCAGGAGAAUUUUCUGCAGCUGUUUCAAAGUUGUGGCCUGGCCUUGAAUGGAAUUCUCGGGUGCCAA", "RBNS enrichment (R)": 0.602}
{"Strand": "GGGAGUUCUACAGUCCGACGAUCAACCCAUGACCAUUUACUAAGUGAAUGAUGUAUAUUUCCCAUUAUCAGAAGUAUAAUGAAGUUGGAAUAAAUUCUUUAAAGUUUACUAUGUUGCCAGUGGUUUCACACAAUGGAAUUCUCGGGUGCCAA", "RBNS enrichment (R)": 0.558}
{"Strand": "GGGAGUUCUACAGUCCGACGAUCUCGUCACGGUUAAAGAGAAAUGGGCUCGUCCCGAGGGUAGUGCCUGAUCAAUGAGGGCGGGGCCUGGCGUCUGAUCUGGGGCCGCCCUUACGGGGCAGGGCUCAGUCCUGUGGAAUUCUCGGGUGCCAA", "RBNS enrichment (R)": 0.438}
{"Strand": "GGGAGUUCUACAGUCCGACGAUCACUUGUGUCGUGGGGGAAAACAUAAGGUCAUUUUCUCCCUCUACUCACAAUACUAAAGGGAAAAAAUGGAUUCAAAGCUAGGAUUUCAGGGCCCAGCAGUGUUCCUCCAUUGGAAUUCUCGGGUGCCAA", "RBNS enrichment (R)": 0.334}
{"Strand": "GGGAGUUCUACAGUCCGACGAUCGGGUUCGGACAGGAUAGCUGAGGCUGCUGUCUCACACCCUCUAGCACAUGUAGUCCUGAGUCCUUCCUGCCGGAGAUGCCACCGGUUGCACAGCCCUCAAGAGGCCCCUUUGGAAUUCUCGGGUGCCAA", "RBNS enrichment (R)": 0.455}
{"Strand": "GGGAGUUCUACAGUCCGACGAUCAACCCCUUUUAAAAUCUAAUGUCUGGGCUUUGAGUAUUAGCUCAUUUAGGGUGGACAAAUGCAUUACUGUUUUCAAACUGCUCACAUUUAUUCAGUAUUUCUCCAAGUUGUGGAAUUCUCGGGUGCCAA", "RBNS enrichment (R)": 0.721}
{"data": "Set 3", "target": "Ras GTPase-activating protein-binding protein 1, full length (G3BP1, Homo sapiens, UniProt Q13283)", "technique": "RNA Bind-n-Seq", "form": "RNA", "medium": "in vitro", "concentration": "200 nM", "notes": "whole 134-nt RNA, ends assumed", "together with": "150 mM LiCl", "relative to": "input library", "direction": "higher = stronger binding", "all molecules": "7-deaza-guanosine replaces G", "sequence of UniProt Q13283 (whole entry, looked up)": "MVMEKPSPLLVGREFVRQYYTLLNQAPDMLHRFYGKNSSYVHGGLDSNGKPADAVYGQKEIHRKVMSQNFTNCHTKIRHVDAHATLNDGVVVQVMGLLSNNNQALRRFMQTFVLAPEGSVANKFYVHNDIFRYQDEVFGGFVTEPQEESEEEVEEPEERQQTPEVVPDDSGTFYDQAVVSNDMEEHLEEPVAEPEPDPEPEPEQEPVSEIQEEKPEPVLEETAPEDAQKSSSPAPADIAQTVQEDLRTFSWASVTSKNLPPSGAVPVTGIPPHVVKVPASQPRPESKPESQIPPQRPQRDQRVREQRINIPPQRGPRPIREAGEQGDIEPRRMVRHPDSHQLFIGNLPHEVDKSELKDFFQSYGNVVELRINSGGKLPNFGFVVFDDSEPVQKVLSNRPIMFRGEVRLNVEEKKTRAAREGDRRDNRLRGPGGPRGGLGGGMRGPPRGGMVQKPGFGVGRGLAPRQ"}
{"Strand": "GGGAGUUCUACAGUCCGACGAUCCCUGUGCUACACAUCGUAUGUACCGAAUCGGGAAAAAGGGUUUUUUUGGGAAAAAAAGGGAAAGUAUUAUGUUACGCCGUUCGGAUCUGCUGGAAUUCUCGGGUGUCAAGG", "log2 enrichment": -0.884}
{"Strand": "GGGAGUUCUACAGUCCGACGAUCGCAGGAAGUAAAAACAAAUGGAAAUGCUUCGGAUAGUGGCAGGGGUGGGGGUUGCUAAGGAAAGGGUGGGAUGGGAGUGGGUAAAGACUUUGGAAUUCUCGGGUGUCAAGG", "log2 enrichment": -0.0129}
{"Strand": "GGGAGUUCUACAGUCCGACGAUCAAGUCCUGUGCUACACAUCGUAUGUACCGAAUCGGGGUUUGGUUUGGGGUUUGGGGAAAGUAUUAUGUUACGCCGUUCGGAUCUGCACUUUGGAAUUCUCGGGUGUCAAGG", "log2 enrichment": -0.669}
{"Strand": "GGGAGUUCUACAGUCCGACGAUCCCUGUGCUACACAUCGUAUGUACCGAAUCGGGAAAAAAAGGGAAAAAAAGGGUUUUUGGGAAAGUAUUAUGUUACGCCGUUCGGAUCUGCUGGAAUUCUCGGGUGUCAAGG", "log2 enrichment": -1.36}
{"Strand": "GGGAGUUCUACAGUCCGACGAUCUGGCCCUCAAGCACUGCACAGAGGCCCUUCUUUCUCUUGGCCAGUACUCCAUGGCAGACUUCACAGGGCCUUGUCCAUUGGAAAUAGAACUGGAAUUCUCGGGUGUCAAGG", "log2 enrichment": 0.522}
{"Strand": "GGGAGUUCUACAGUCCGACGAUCCUGUGCUACACAUCGUAUGUACCGAAUCGGGGCCCCCCCGGGCCCCCCCGGCCCCCCCGGGGAAAGUAUUAUGUUACGCCGUUCGGAUCUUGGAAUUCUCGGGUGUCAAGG", "log2 enrichment": 0.284}
{"Strand": "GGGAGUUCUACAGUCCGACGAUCCAAGUCCUGUGCUACACAUCGUAUGUACCGAAUCGGGGUUUGGUUUGGGGUUUGGAAAGUAUUAUGUUACGCCGUUCGGAUCUGCACUUCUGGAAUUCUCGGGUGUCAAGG", "log2 enrichment": -1.32}
{"Strand": "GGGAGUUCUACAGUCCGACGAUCCACAGACAACACGCACCCACACAGACACAGAGGGAAGGGGUUGGGAUGGGGACAGGGUGCACAGCAGGGCGGAGUAGGACCCCAGCCCCUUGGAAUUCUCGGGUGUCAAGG", "log2 enrichment": 0.0443}
{"Strand": "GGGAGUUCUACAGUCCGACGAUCUCCUGUGCUACACAUCGUAUGUACCGAAUCGGGUUUUUGGGUUUUUUUGGGAAAAAGGGAAAGUAUUAUGUUACGCCGUUCGGAUCUGCAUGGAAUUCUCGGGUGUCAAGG", "log2 enrichment": 0.138}
{"Strand": "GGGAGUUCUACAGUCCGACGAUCCAAGUCCUGUGCUACACAUCGUAUGUACCGAAUCGGGAGGGUUUGGGUUUUUGGGAAAGUAUUAUGUUACGCCGUUCGGAUCUGCACUUCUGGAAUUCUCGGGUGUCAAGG", "log2 enrichment": 0.32}
{"Strand": "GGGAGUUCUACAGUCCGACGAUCCCUCAAGUCCUGUGCUACACAUCGUAUGUACCGAAUCGGUGGUUUGGAAAGGAAAGUAUUAUGUUACGCCGUUCGGAUCUGCACUUCCAGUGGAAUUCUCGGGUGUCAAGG", "log2 enrichment": 0.596}
{"data": "Set 4", "target": "Prothrombin, mature alpha-thrombin (F2, Homo sapiens, UniProt P00734)", "technique": "aptamer microarray, sandwich", "form": "DNA with 2'F-ANA", "medium": "in vitro", "concentration": "200 nM", "notes": "whole 15-mer aptamer, many near background", "together with": "Cy3 exosite-II aptamer, 400 nM", "direction": "higher = stronger binding", "strand": "GGTTGGTGTGGTTGG"}
{"Modification": "2'F-ANA at 1 4 5 6 7 13 14", "mean fluorescence intensity [a.u.]": 46.1}
{"Modification": "2'F-ANA at 1 3 6 12 13 14", "mean fluorescence intensity [a.u.]": 107}
{"Modification": "2'F-ANA at 1 3 4 7 8 11 13 14 15", "mean fluorescence intensity [a.u.]": 91.4}
{"Modification": "2'F-ANA at 5 8 9 11 12 13 14 15", "mean fluorescence intensity [a.u.]": 58.8}
{"Modification": "2'F-ANA at 1 2 5 8 9 11 14", "mean fluorescence intensity [a.u.]": 59}
{"Modification": "2'F-ANA at 3 6 7 9 11 12 13 14", "mean fluorescence intensity [a.u.]": 637}
{"Modification": "2'F-ANA at 1 5 8 9 10 13 14 15", "mean fluorescence intensity [a.u.]": 60}
{"Modification": "2'F-ANA at 2 3 5 6 8 10 11 12 13 15", "mean fluorescence intensity [a.u.]": 58}
{"Modification": "2'F-ANA at 2 5 7 8 10 14 15", "mean fluorescence intensity [a.u.]": 46.6}
{"Modification": "2'F-ANA at 2 4 6 7 9 10 11", "mean fluorescence intensity [a.u.]": 78.5}
{"Modification": "2'F-ANA at 1 2 3 4 5 8 12", "mean fluorescence intensity [a.u.]": 125}
